Results pooled from the literature.
Every numbered part comes from another study and shows a few of its results, in no order.

Sample 1
Target: Fragile X messenger ribonucleoprotein 1, C-terminal low-complexity region (Fmr1, Mus musculus, UniProt P35922)
Technique: RNA Bind-n-Seq
Molecule type: RNA
Medium: in vitro
Tested at: 200 nM
Setting: whole 134-nt RNA, ends assumed
Together with: 150 mM KCl
Baseline: input library
Direction: higher = stronger binding
Constant ends, left off below: GGGAGUUCUACAGUCCGACGAUC … UGGAAUUCUCGGGUGUCAAGG
| Oligonucleotide | log2 enrichment |
| --- | --- |
| ACCAUGCAGGUGGGCAUCUUUGGGAAGUGGGGCAAGGGGGGGAUAGGCAGGGGGGUAACACUUUGGGAACAGGUGGUCCCAGGUCGUUUC | 0.571 |
| UGGGAGGUGGAUUUUGUUUAUUUUUUUAGCUCAUUUCCCGGGGUGGGAAUUUUUUUUUAAUAUGUGUCAUGAAUAAAGUUGUUUUUGAAA | 0.024 |
| AGGGAGGUGGAUUUUGUUUAUUUUUUUAGCUCAUUUCCAGGGGUGGGAAUUUUUUUUUAAUAUGUGUCAUGAAUAAAGUUGUUUUUGAAA | 0.286 |
| CGGUCAGACUUUGUGUUACAUAAAUUAACACUGUUCUCAGGUAAUGAGAGAUCCAAACACCAAGCGCUCCAGGGGCUUUGGGUUUGUCAC | -0.644 |
| AAGUCCUGUGCUACACAUCGUAUGUACCGAAUCGGUUUUUUUGGUGGUUUUUUUGGAAAGUAUUAUGUUACGCCGUUCGGAUCUGCACUU | -0.94 |
| GUCCUGUGCUACACAUCGUAUGUACCGAAUCGGGUUUUUUGGUUUUUUGGUUUUUUGGGAAAGUAUUAUGUUACGCCGUUCGGAUCUGCA | -0.866 |
| CCUCAAGUCCUGUGCUACACAUCGUAUGUACCGAAUCGGGUUGGUUGGUUGGAAAGUAUUAUGUUACGCCGUUCGGAUCUGCACUUCCAG | 0.167 |
| ACCAUGCAGGUGGGCAUCUUUGGGAAGUGGGGCAAGGGGGGGAUAGGGAGGGGGGUAACACUUUGGUAACAGGUGGUCCCAGGUCGUUUC | 0.349 |
| UAACUUUAAAGGAGGAUCUGAUGGAUAUGGCAGUGGACGUGGAUUUGGGGAUGGCUAUAAUGGGUAUGGAGGAGGACCUGGAGGUGGCAA | 0.28 |

Sample 2
Target: RING finger protein unkempt homolog, zinc fingers 1-6, GST-SBP tag (UNK, Homo sapiens, UniProt Q9C0B0, residues 30-357)
Technique: RNA Bind-n-Seq
Molecule type: RNA
Medium: in vitro
Tested at: not given
Setting: RNA with constant flanks, human and mouse sites, ends assumed
Baseline: input RNA pool
Direction: higher = stronger binding
Constant ends, left off below: GGGAGUUCUACAGUCCGACGAUC … CAACAGAGGAUUGAGCAUCA
Construct (chain): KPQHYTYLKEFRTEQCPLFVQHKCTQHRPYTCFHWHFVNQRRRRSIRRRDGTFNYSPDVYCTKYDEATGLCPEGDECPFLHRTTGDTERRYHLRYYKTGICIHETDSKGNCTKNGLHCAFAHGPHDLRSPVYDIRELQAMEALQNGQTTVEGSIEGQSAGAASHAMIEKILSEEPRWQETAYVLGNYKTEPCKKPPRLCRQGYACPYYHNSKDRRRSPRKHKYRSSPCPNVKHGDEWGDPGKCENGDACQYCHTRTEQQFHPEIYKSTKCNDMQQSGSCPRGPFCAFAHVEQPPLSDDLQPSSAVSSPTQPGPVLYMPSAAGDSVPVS
| Oligonucleotide | bound/input enrichment [ratio] |
| --- | --- |
| GUAUUUAAGUUUGCUGUAGAUUGUGUGUGUGUGUGCUAAGUAAAAGUUCCAUGAUUCACAAUUUUAGUAUUAACCCAUGUUGCAAAAGCUGUUACUGGCCAACAGAUUGUAAUGAUGUGU | 3.57 |
| GUUCGACUUUGGGAUCAUGCUACUAUGACAGAAGUGAAAUCUCUAAAUUUUAAUAUGUCUGUUAGUAGUAUGGAAUAUAUUCCUGAGGGAGAGAUUUUGGUUAUAACUUAUGGACGAUCU | 0.39 |
| CUUCAUGUCUUUCUCUGCAGGCAGGAGUUAAGGUCCUAUUCUCAUGGAUGACUUGUGCUGAUUGUCUUGGUAGUGUGGAUUGAUAUUGUUGCUUCCAUUUUCCAGGCUGACCUAGGACAG | 0.129 |
| UCAACCAAAGAUGUACAUAAAGGAGAGUCUGGAAGCCAGGAAGCGGCAGUAAACAGUUUUAGCUCUUUAGUUGGUCACCCUGUGACCUCGACUGUUAUUUCACAGCCUAAAAGCUUUGAC | 0.283 |
| CACCCCGGCAAAGGACAGGCGGGCCCUGGUCCUCAAGCAGCCCAUAGGCGUGGCUGCAGUCAUCACCCCGUGGAAUUUCCCCAGUGCCAUGAUCACCCGGAAGGUGGGGGCCGCCCUGGC | 0.0798 |
| AAUUUUCUUACUGGCCAGAGUUCUUGGUGGAGAAGUUGCAUAUGGCCAAGUCCUUGGAGUUAUAGGAUAUUCAUUACUUCCUCUCAUUGUAAUAGCCCCUGUACUUUUGGUGGUUGGAUC | 0.754 |
| AUGUACAGGAAGAGCCAAGCCACAGGCUUUCCAUCACUUAUUACAAUUUUCUCUGCCCCCAAUUACCUAGAUGUCUAUAACAAUAAAGCUGCUGUGUUGAAAUAUGAAAACAAUGUCAUG | 14.6 |
| AAAGAUAGGCUCUAUUGUGAAAAGGAAAAUGACCCCAAACGACGCUCUUGUCAGACUGCAUUAGUUGAAAUUUUGGAUGUAAUAGUUCGUUCUUUUGCUCCCAUUCUUCCUCACCUGGCU | 0.842 |

Sample 3
Target: Centromere-binding protein 1, full length, His-tagged (CBF1, Saccharomyces cerevisiae, UniProt P17106, residues 1-351)
Chain of UniProt P17106 (whole entry, looked up): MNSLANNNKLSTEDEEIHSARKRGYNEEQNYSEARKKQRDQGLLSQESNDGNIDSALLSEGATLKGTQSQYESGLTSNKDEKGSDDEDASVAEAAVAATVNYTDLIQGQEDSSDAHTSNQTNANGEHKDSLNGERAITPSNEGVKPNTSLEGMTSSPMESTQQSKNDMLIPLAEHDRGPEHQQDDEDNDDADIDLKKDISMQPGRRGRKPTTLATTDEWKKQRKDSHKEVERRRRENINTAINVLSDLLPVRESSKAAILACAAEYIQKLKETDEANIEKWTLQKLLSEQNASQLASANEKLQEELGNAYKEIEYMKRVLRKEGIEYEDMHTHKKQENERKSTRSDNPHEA
Technique: competition protein-binding microarray
Molecule type: double-stranded DNA, one strand shown
Medium: in vitro
Tested at: 2 µM
Setting: whole 60-bp probe, lowest competitor level
Together with: Pho4 competitor, 0.05 µM
Direction: higher = stronger binding
Constant ends, left off below: … GTCTTGATTCGCTTGACGCTGCTG
| Oligonucleotide | fluorescence intensity [a.u.] |
| --- | --- |
| TGCGCAACAACTTGTCACATGACTTTATGTCTAGAA | 2790 |
| CTTTTCAAGAATGCAAACGTGAGGTTGGCGCGCCCT | 73.3 |
| AGGGTGGTATGGATACACGGGAAGCTGGGTGCTGCA | 83.7 |
| TTATCAAGAAACCGTCACAGAAGGAGCTCACTCTGG | 58.4 |
| TTCCGCAATAGCCAACACGTGTGGAGGAACTTCAAG | 947 |
| CACTGACTCAGCAGACACGTGGCTGGGCTCAGGCTG | 764 |
| TCCAGTACGGACTGGCACGTGTGTTCCCACCAGGGT | 905 |
| CTAACGAAGGTTTTTCACGTGGTTTACAAGCCAAGT | 1230 |
| TAACGTTCGTCGGGACATATGACTTGAAAAATGTCC | 180 |
| GGATAGGGTCTTTGGCATGTGCGGTGCTTACCCGGA | 79.1 |
| CTGTCCAACGCCTGCAGCGTGGATGTGGAGGCGGAC | 58.1 |
| ACAACCATCTATGATGACGTGTTGACATTATCAAAC | 95.2 |
| CATACCCAACCTTGATCTGTGGGTGAAGATATTTGT | 66 |
| TTGAGCTTGAAAGAGTGCGTGCAAATCATTCAATCA | 96.7 |
| CATACCCAACCTTGTTACGTGGGTGAAGATATTTGT | 72.2 |
| TCTAATCTCTAAGTACACGTGCAAATGGACCTATCA | 1250 |
| TGCGCAACAACTTTTCACGTGGCTTTATGTCTAGAA | 835 |
| TACTAATAGGCGTCCCACGTTTGAATTTCTTTTTTT | 68.9 |
| ATATAGACAAAAGTGGCCGTGACGGGTAAAAAGGAT | 139 |

Sample 4
Target: RNA binding protein fox-1 homolog 2, RRM domain, GST-SBP tag (RBFOX2, Homo sapiens, UniProt O43251-10, residues 100-194)
Technique: RNA Bind-n-Seq
Molecule type: RNA
Medium: in vitro
Tested at: 365 nM
Setting: natural RNA segment, single round, ends assumed
Baseline: no-protein control
Direction: higher = stronger binding
Constant ends, left off below: GGGAGUUCUACAGUCCGACGAUC … UGGAAUUCUCGGGUGCCAA
Target sequence (chain): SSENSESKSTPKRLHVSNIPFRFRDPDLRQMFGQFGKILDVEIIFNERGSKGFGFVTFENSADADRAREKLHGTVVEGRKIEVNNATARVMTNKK
| Oligonucleotide | RBNS enrichment (R) |
| --- | --- |
| UCUGUGACUGUUGCUGAGUCUCUGUCUCAUGUCGUAGAAUUGUGGAUAAUUGUCUAGUGACCCUCUCAUCACUGUAACCAUCGCGCCUGGCCUAGAUGUCGUGUUUUGGA | 0.413 |
| GGUGCUUGGGCCAGGUCUUCUCAAUGGAAGGGGAAUCCCUUAUAGGGGAGAGGGAACAGAGCCCAGUGAAAUGGCAGUCAGAAUGUUAACCCUGGAUCCAUCUCUAAGUA | 0.267 |
| UUUUUUUCUGCCUCGGUUCUUAUCGGCUAGGUUUGAGGUAUUUCACUGAGAACGUGAACUCGGUCUUCCUUCCAGCUGUCGUCAGGAUCUUGGAGGUGUACACUUACUUA | 0.443 |
| AGCUUCCUGGUACUCACAGCAUCUCAGAACAGGGUGCUUCCCUCUGCCUCCAGCUCCAAGGACUCUGCCUACAGGAGUGUGCCUUGGGGCUGAAAGGCCAUGCAAACACA | 0.273 |
| AGGCUGGGGUGACCCUUCCCCCAUCAUUGGGCCCCAACGGGCAUGUCUCCACCGAAUCCAUUUAGAGAAAUGUCAGAGCGAGGGUUGUGUGGACACCCCUCGCUCUGAUG | 0.354 |
| CCAGGGAGGAGCCUGAGCAGCUUCCAUAGCAGAUCCGUUGCCAGUUACCUGGCCUGUAAGCUUCUUACUGAUUGAUUGUCUAAGGCUCCUGUCAGAGCCCACCUAGAAGC | 0.416 |
| GAGGGAGUCAUGUGUGUUUGAAGGGAGAAGUCCAUUGAGUCUCUAAUUGACUUUUCUUUCAGCUCCAGUGUGAACUAUAAAACCAUAAUCACUCAGUUCUUGGAAAAGUC | 0.311 |
| UGAUUCUGAGGCUGCUGAGACUGAACAUGUUCACAUUGACAGAAAAACAAGCUGCUCUUUAUAAUAUGCACCUUUUAAAAAAUUAGAAUAUUUUACUGGGAAGACGUGUA | 0.634 |

Excerpt of the above (sample 1):
| Oligonucleotide | log2 enrichment |
| --- | --- |
| ACCAUGCAGGUGGGCAUCUUUGGGAAGUGGGGCAAGGGGGGGAUAGGCAGGGGGGUAACACUUUGGGAACAGGUGGUCCCAGGUCGUUUC | 0.571 |
| UGGGAGGUGGAUUUUGUUUAUUUUUUUAGCUCAUUUCCCGGGGUGGGAAUUUUUUUUUAAUAUGUGUCAUGAAUAAAGUUGUUUUUGAAA | 0.024 |
| AGGGAGGUGGAUUUUGUUUAUUUUUUUAGCUCAUUUCCAGGGGUGGGAAUUUUUUUUUAAUAUGUGUCAUGAAUAAAGUUGUUUUUGAAA | 0.286 |
| CGGUCAGACUUUGUGUUACAUAAAUUAACACUGUUCUCAGGUAAUGAGAGAUCCAAACACCAAGCGCUCCAGGGGCUUUGGGUUUGUCAC | -0.644 |
| AAGUCCUGUGCUACACAUCGUAUGUACCGAAUCGGUUUUUUUGGUGGUUUUUUUGGAAAGUAUUAUGUUACGCCGUUCGGAUCUGCACUU | -0.94 |
| GUCCUGUGCUACACAUCGUAUGUACCGAAUCGGGUUUUUUGGUUUUUUGGUUUUUUGGGAAAGUAUUAUGUUACGCCGUUCGGAUCUGCA | -0.866 |
